Experimental data collected from several papers.
Values joined by “and” are separate records of one study, mostly repeats; a detail may differ.
STING1 H232R: Stimulator of interferon genes protein (STING1, Homo sapiens, UniProt Q86WV6, H232R)
UniProt Q86WV6, sequence (whole entry, unmodified, looked up): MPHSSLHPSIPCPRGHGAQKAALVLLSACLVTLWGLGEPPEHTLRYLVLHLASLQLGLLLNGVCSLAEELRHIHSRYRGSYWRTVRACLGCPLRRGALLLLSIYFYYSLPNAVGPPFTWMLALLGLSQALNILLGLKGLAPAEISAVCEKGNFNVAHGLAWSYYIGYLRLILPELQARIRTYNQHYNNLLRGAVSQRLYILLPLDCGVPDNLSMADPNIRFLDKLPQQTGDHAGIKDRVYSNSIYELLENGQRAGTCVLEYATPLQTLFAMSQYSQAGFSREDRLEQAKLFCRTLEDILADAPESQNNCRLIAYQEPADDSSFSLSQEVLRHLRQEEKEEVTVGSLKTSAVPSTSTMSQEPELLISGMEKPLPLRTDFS
UniProt P10635, sequence (whole entry, looked up): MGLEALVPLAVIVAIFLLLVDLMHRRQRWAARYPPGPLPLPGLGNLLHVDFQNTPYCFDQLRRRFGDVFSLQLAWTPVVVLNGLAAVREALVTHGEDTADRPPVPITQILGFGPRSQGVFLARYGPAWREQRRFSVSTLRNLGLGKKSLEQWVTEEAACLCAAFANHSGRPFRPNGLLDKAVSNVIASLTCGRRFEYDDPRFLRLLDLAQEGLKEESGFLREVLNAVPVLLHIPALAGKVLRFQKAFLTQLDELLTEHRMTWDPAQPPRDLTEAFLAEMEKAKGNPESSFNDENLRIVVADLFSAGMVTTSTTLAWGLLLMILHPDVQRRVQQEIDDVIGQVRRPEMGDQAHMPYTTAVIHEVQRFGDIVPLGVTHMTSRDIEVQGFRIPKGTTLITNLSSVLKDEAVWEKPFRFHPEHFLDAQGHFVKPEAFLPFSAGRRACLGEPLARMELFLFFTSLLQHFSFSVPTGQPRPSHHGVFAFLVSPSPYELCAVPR

SMILES | target or system | assay | test system | setting | scale | endpoint | result
CN(Cc1ccccc1)C(=O)CN1CCN(CC(=O)[O-])CCN(Cc2cccc(C(=O)[O-])n2)CC1.[44Sc+3] |  |  | mouse, kidney | intravenous, 1 h |  | tracer uptake | 2.85 %ID/g
OC(Cc1cc(-c2ccc(C(O)C(F)(F)F)s2)sc1-c1ccc(-c2sc(-c3ccc(C(O)C(F)(F)F)s3)cc2CC(O)C(F)(F)F)s1)C(F)(F)F (stereo not shown) | primary human fetal neurons | LC-MS/MS |  | 4 µM, 30 min, replicate 3 |  | amount in cell extract | 0.02 nmol and 0.01 nmol
COC1CN([C@H]2CC[C@H]([C@@]3(C)Oc4c(Cl)cc(C(=O)NCc5c(SC)cc(C)[nH]c5=O)c(C)c4O3)CC2)C1 |  | RNA-seq, measured: ARNT2 | human, whole blood | dose not given, 24 h | relative to: pretreatment baseline | log2 fold change | 8.05
O=C(N[C@@H](CCNC(=O)c1ccc([N+](=O)[O-])o1)c1nc2ccccc2[nH]1)c1cnn(-c2ccccc2)n1 | STING1 H232R | reporter gene, inhibitor | THP1-Dual KI-hSTING-R232 | 24 h, 1 h preincubation, together with: diABZI 500 nM |  | EC50 | 15.8 µM
Nc1nc(-c2cc(C(F)(F)F)cc(C(F)(F)F)c2)nc2[nH]nc(Nc3ccc(Cl)cc3)c12 | HeLa Ohio |  |  | 72 h |  | CC50 | 9.3 µM
CC(C)OCCOCc1ccc(OCC(O)CN(N=O)C(C)C)cc1 (stereo not shown) | Escherichia coli | Ames test | WP2 uvrA | 5 µg/plate, 30 % rat S9 | relative to: solvent control | revertant fold increase | 0.9 fold
CNC(=O)C1CCCN(C(=O)C2CC3CCC2N3C(=O)[C@@H]2C[C@@H](O)CN2C(=O)NCc2cccc(Cl)c2F)C1 (mixture of isomers) | Cytochrome P450 2D6 (CYP2D6, Homo sapiens, UniProt P10635) | enzyme activity, inhibitor, time-dependent inhibition |  | 0.617 µM, preincubated without NADPH | relative to: negative control | remaining activity | 104%
O=C([O-])CN1CCN(CC(=O)[O-])CCN(Cc2cccc(C(=O)[O-])n2)CC1.[44Sc+3] |  |  | mouse, blood | intravenous, 1 h |  | tracer uptake | 0.57 %ID/g
CCc1ccc(-c2nc(N)c3c(Nc4ccc(F)cc4)n[nH]c3n2)cc1 | HeLa Ohio |  |  | 72 h |  | CC50 | 88.7 µM
O=C(N[C@@H](CCCCNC(=O)c1ccc([N+](=O)[O-])o1)c1nc2ccccc2[nH]1)c1ccc(-c2cccnc2)cc1 | STING1 H232R | reporter gene, inhibitor | THP1-Dual KI-hSTING-R232 | 24 h, 1 h preincubation, together with: diABZI 500 nM |  | EC50 | 3.2 µM
CCN(CC)CC#CCNc1ccnc2cc(Cl)ccc12 | Salmonella typhimurium | mini-Ames test | TA100 | 250.0 µg/well, with rat liver S9 |  | revertants | 23 revertants/well and 19 revertants/well
Cc1ccc(Nc2n[nH]c3nc(-c4cccc(F)c4)nc(N)c23)cc1 | HeLa Ohio |  |  | 72 h |  | CC50 | 36.2 µM
Cc1ncsc1-c1ccc(C(C)NC(=O)C2CC(O)CN2C(=O)C(NC(=O)CCCCCCCCCCN2CCCC(Nc3ncc(Cl)c(Nc4ccccc4S(=O)(=O)C(C)C)n3)C2)C(C)(C)C)cc1 (stereo not shown) | 22Rv1 | RNA-seq, measured: NUP50-DT |  | concentration not given | relative to: DMSO | log2 fold change | -1.91

For quick reference, copied from above:
SMILES | target or system | assay | test system | setting | scale | endpoint | result
OC(Cc1cc(-c2ccc(C(O)C(F)(F)F)s2)sc1-c1ccc(-c2sc(-c3ccc(C(O)C(F)(F)F)s3)cc2CC(O)C(F)(F)F)s1)C(F)(F)F (stereo not shown) | primary human fetal neurons | LC-MS/MS |  | 4 µM, 30 min, replicate 3 |  | amount in cell extract | 0.02 nmol and 0.01 nmol
